Assay results gathered from unrelated publications.
Every numbered part comes from another study and shows a few of its results, in no order.

Sample 1
Target: Interferon regulatory factor 5, full length, phosphomimetic (IRF5, Homo sapiens, UniProt Q13568-2, residues 1-514, S451D/S453D/S456D/S462D)
Technique: protein-binding microarray
Form: double-stranded DNA, one strand shown
Medium: in vitro
Concentration: 940 nM top
Setting: 60-bp whole probe
With: salmon DNA 0.4 mg/ml
Baseline: random background probes
Direction: higher = stronger binding
Quantity: fitted relative affinity
Constant ends, left off below: GCCTAGCAC … GTCTTGATTCGCTTGACGCTGCTG
CCCTGTTTCTACTGTCTGTTTGTGCTA: 1.87 z-score
TCATATTTATGTATACAACTGTGCTAG: 0.272 z-score
CTTCTTTTGCTAATTTTTTTGTGCTAG: 1.67 z-score
TTAGGACTGCTTCGCCTTTAGTGCTAG: -0.415 z-score
TTAGGTATCGGGTTCCGGTTAGTGCTA: 5.92 z-score
GACGGACTGCTTTACCTGACGTGCTAG: -0.49 z-score
GACGATTTCAGTTTCGACACGTGCTAG: 5.77 z-score
GACGGACTGGGGCTCGGGACGTGCTAG: -0.662 z-score
CACTTTGGATAACCAAAAACGTGCTAG: -0.188 z-score
GACGTTTCCGGTTTCGGGACGTGCTAG: 4.15 z-score
GTCGGTATCGGTTTCGGGACGTGCTAG: 13.1 z-score
TTAGATTCCGGGTTTCGATTAGTGCTA: 5.47 z-score
GACGATTTCGGTTCCGAGACGTGCTAG: 2.01 z-score
TTAGCACTGAGTCTCGATTAGTGCTAG: 2.44 z-score
GACGGTTTCCTTTTGCTGACGTGCTAG: 1.99 z-score
TAAGTTTCACTTTCCAAAGCGTGCTAG: 9.46 z-score
GACGGACTGGATTTCGGGACGTGCTAG: -0.363 z-score
TTAGGTATCGCTATCGGTTAGTGCTAG: 4.92 z-score
TCATCTTGCAGTATGGAACTGTGCTAG: -0.102 z-score

Sample 2
Target: Sal-like protein 4, full length isoform B (SALL4, Homo sapiens, UniProt Q9UJQ4-2, residues 1-616)
Technique: universal PBM
Form: double-stranded DNA, one strand shown
Medium: in vitro
Concentration: not given
Setting: 8-mer, flanks averaged, mean of replicates
Direction: higher = stronger binding
Quantity: E-score
CACTTACC: 0.0309
CGTACTTA: 0.105
CGCTATGA: 0.111
AGGCACTC: -0.189
CGAAATGC: -0.0163
CGCACACA: -0.0432
GAATCGAA: 0.08
CAGCAAGA: 0.0324
GTGGCCGA: -0.179
CCAAGTTA: 0.197
AGCAACAT: 0.0751
AGAGTAAT: 0.27
CATGAAAA: 0.228
ATGATTAG: 0.209
CCAATGGC: -0.16
ACACGTCG: -0.13
CCCGCTTC: -0.253
TAGACGGA: 0.0536
ACGCGAGG: -0.171
AAAGAACT: 0.0228
ACACGTTA: 0.177
ATAGTGTA: 0.234
TCGTTCCA: 0.128
ATAGCTCC: 0.104

Sample 3
Target: RNA binding protein fox-1 homolog 2, RRM domain, GST-SBP tag (RBFOX2, Homo sapiens, UniProt O43251-10, residues 100-194)
Technique: RNA Bind-n-Seq
Form: RNA
Medium: in vitro
Concentration: 365 nM
Setting: natural RNA segment, single round, ends assumed
Baseline: no-protein control
Direction: higher = stronger binding
Quantity: RBNS enrichment (R)
Constant ends, left off below: GGGAGUUCUACAGUCCGACGAUC … UGGAAUUCUCGGGUGCCAA
Construct (chain): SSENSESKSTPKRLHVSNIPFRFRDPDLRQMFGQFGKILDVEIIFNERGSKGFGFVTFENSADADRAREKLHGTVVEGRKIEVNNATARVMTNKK
AGCUGGGUGUUUUCAAAUUUUCUUGAAAAGUGAGUUGUGUCACAGAAUGUGGAUAGUGAGAUUUGCUUCUGGGCCUGUGGUUGGACGCCCACAGCUUCCUUUGGAGGGGC: 2.53
CUGAUCCGGAAGCACGCAGCAUGUUCCCUGCUGAGCGGAGGCAGCCCACCUGUCCUGCCUCCCAGGAGCCCUUGGCCACCUCGCGCCAGCCCAAAGGCGCAGCUCUGAGU: 10.3
CCUGAAUAUUUCCAGUGCCUACCUGUGGUCUGUCCAGUUCUGGCCUGUAAGCCCUUCCCUAUCAGAGACAGUUGCAGAGUAGAGGAUAUUGAGGGGUUGAGGGGUUGAUC: 0.568
GCCUCGCACGUGCACCAGACCCCAUGAGAGGGCCGAGCUCUGCGAGGGGGAAAUGCCUUUGCAGCUCCAUUUAGUUGUUUGGAGACUGCUCCUGGGAUGCUAACCUGAUG: 0.553
UCAAGUGUGCCCACCCUGCAGUCUUCAUCCUCACUCAGCUGCUGCCUCUGGAGGUGCCUUUGGCCACAUGUGCUGUGCUGUUUGUCUCCUCGACAGGGAGCCUGUCCACC: 0.342
UUGUUAUGUUUUUAUUUGGGCAAGUUUAAUCAUGGAAAACUCAAAAAGAAGGGGGGAAAUGGUCAGUUUAAGCCAAAAGAAACUUUCUAAACAAUGUAUAGGUACACAGC: 0.493
UUGGGUCUAUUCCAGCUCAUUCAUUUUAUAUUGAAAACUAAUUUAAAAAAAAAUGGUGGCUUCAGCUCCAGCCCCUUUCCAAAAUUUUUCAACCCCACCCUGUUUGGAUU: 0.729
UAACUGAACAUAUUUUUUAGGCAAGUCAGAAAGAGAACAUGGUCACCCAAAAGCAACUGUAACUCAGAAAUUAAGUUACUCAGAAAUUAAGUAGCUCAGAAAUUAAGAAA: 0.351

Sample 4
Target: Fragile X messenger ribonucleoprotein 1, C-terminal low-complexity region (Fmr1, Mus musculus, UniProt P35922)
Technique: RNA Bind-n-Seq
Form: RNA
Medium: in vitro
Concentration: 200 nM
Setting: whole 134-nt RNA, ends assumed
With: 150 mM KCl
Baseline: input library
Direction: higher = stronger binding
Quantity: log2 enrichment
Constant ends, left off below: GGGAGUUCUACAGUCCGACGAUC … UGGAAUUCUCGGGUGUCAAGG
UCAAGUCCUGUGCUACACAUCGUAUGUACCGAAUCGGGAGGGAAAGGGAAAGGGAAAGUAUUAUGUUACGCCGUUCGGAUCUGCACUUCC: 0.82
AAGUCCUGUGCUACACAUCGUAUGUACCGAAUCAAACCCAAAUUUUUAAAUUUAAAAAAGUAUUAUGUUACGCCGUUCGGAUCUGCACUU: 0.196
CAAGUCCUGUGCUACACAUCGUAUGUACCGAAUCGGUUUGGAAAAAGGAAAAAGGAAAGUAUUAUGUUACGCCGUUCGGAUCUGCACUUC: -0.643
UUUGGUUAUGAACAGGAUUCGGAUUCACGUCUUGCCAACCAAUCGGGGGAGGAUCACUCCAGUGCCCAGGUCUCAGGAACCUCUGUCUUG: -0.342
UCAAGUCCUGUGCUACACAUCGUAUGUACCGAAUCGGGGCCCGGCCCGGCCCGGAAAGUAUUAUGUUACGCCGUUCGGAUCUGCACUUCC: -0.221
UGGGAGGUGGAUUUAGUUUAUUUUUUUAGCUCAUUUCCAGGGGUGGGAAUUUUUUUUUAAUAUGUGUCAUGAAUAAAGUUGUUUUUGAAA: 0.215
ACCAUGCAGGUGGGCAUCUUUGGGAAGUGGGGCAAGGGGGGGAUAGGGAGGGGGGUAACACUUUGGGAGCAGGUGGUCCCAGGUCGUUUC: 0.701
CUCAAGUCCUGUGCUACACAUCGUAUGUACCGAAUCGGGGCCGGGCCGGCCGGAAAGUAUUAUGUUACGCCGUUCGGAUCUGCACUUCCA: -0.122
UCAAGUCCUGUGCUACACAUCGUAUGUACCGAAUCGGAAAGGGGAAAGGGAAAGGAAAGUAUUAUGUUACGCCGUUCGGAUCUGCACUUC: -0.56
